Literature values, collected from citations in different studies.
Each line is one published result; not all experiments were run side by side. ± gives the spread as reported.
Chain of UniProt Q8NI60 (whole entry, looked up): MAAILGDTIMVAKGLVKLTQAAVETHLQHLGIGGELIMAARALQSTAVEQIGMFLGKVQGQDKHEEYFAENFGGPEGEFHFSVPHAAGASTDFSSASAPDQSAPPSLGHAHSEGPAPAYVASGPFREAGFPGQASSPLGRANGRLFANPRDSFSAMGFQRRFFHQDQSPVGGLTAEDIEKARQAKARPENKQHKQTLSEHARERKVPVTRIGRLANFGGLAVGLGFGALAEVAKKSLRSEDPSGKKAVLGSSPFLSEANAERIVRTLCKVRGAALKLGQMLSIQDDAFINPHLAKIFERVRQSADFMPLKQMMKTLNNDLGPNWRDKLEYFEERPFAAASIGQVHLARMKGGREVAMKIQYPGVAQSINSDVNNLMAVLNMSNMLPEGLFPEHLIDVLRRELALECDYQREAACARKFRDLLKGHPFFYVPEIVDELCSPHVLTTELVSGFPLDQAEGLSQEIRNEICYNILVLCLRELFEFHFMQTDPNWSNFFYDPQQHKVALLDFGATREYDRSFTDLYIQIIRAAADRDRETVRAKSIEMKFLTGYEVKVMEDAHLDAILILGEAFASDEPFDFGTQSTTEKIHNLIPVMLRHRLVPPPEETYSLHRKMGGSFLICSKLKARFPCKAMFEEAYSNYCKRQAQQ

COc1cc(N2CCC(N3CCN(C)CC3)CC2)ccc1Nc1ncc(Cl)c(Nc2ccccc2P(C)(C)=O)n1 has a Cmax of 826 ng/mL (healthy subjects; 180 mg, single dose alone, rifampin study).
Nc1cc(C(F)(F)F)c(-c2nc(N3CCOCC3)nc(N3CCOCC3)n2)cn1 has a remaining activity of 80% (COQ8A (Homo sapiens, UniProt Q8NI60); enzyme activity; 10 µM; reference: untreated).
For CCC(=O)NC[C@@H]1C[C@H]1c1cccc2c1CCO2, the Cmax was 235 nM (plasma; concentration not given, total concentration).
The Cmax of CC(C)c1c(C(=O)Nc2ccccc2)c(-c2ccccc2)c(-c2ccc(F)cc2)n1CC[C@@H](O)C[C@@H](O)CC(=O)O is reported as 30 nM (plasma; concentration not given, total, steady state).
For CCCCC[C@H](O)CC[C@@H]1[C@H]2Cc3cccc(OCC(=O)O)c3C[C@H]2C[C@H]1O, the Cmax was 0.35 ± 0.14 ng/mL (non-Japanese healthy adults; 18 µg).
With CC(C)(O/N=C(\C(=O)N[C@@H]1C(=O)N2C(C(=O)[O-])=C(C[n+]3ccccc3)CS[C@H]12)c1csc(N)n1)C(=O)O the MIC was at most 2 µg/mL (Klebsiella pneumoniae; clinical isolate RKI-No_320/16).
The Cmax of Cc1nc(Nc2ncc(C(=O)Nc3c(C)cccc3Cl)s2)cc(N2CCN(CCO)CC2)n1 is reported as 130 nM (plasma; concentration not given, total, steady state).
The MIC of CC1(C)S[C@@H]2[C@H](NC(=O)[C@H](N)c3ccccc3)C(=O)N2[C@H]1C(=O)O is reported as over 16 µg/mL (Acinetobacter baumannii; clinical isolate RKI-No_11/16).
The Cmax of c1cnc2cc3c(cc2n1)[C@@H]1CNC[C@H]3C1 is reported as 0.0193 nM (plasma; concentration not given, total concentration).
The Cmax of CCn1c(=O)c(-c2cc(NC(=O)Nc3ccccc3)c(F)cc2Br)cc2cnc(NC)cc21 is reported as 833 ng/mL (patients, plasma; 150 mg once daily, median).
CS(=O)(=O)CCNCc1ccc(-c2ccc3ncnc(Nc4ccc(OCc5cccc(F)c5)c(Cl)c4)c3c2)o1 gave a Cmax of 4200 nM (plasma; concentration not given, total, steady state).
CNCC[C@@H](Oc1ccccc1C)c1ccccc1 has a Cmax of 2780 nM (plasma; concentration not given, total, literature data).
O=C(c1ccccc1)c1ccc2n1CCC2C(=O)O (stereo not drawn) has a Cmax of 9500 nM (plasma; concentration not given).
The Cmax of C=CC[C@@H]1/C=C(\C)C[C@H](C)C[C@H](OC)[C@H]2O[C@@](O)(C(=O)C(=O)N3CCCC[C@H]3C(=O)O[C@H](/C(C)=C/[C@@H]3CC[C@@H](O)[C@H](OC)C3)[C@H](C)[C@@H](O)CC1=O)[C@H](C)C[C@@H]2OC is reported as 40 nM (plasma; concentration not given, total, steady state).
CC(C)[C@H]1CC[C@H](C(=O)N[C@H](Cc2ccccc2)C(=O)O)CC1 gave a Cmax of 18000 nM (plasma; concentration not given).
The Cmax of CCCCc1oc2ccccc2c1C(=O)c1cc(I)c(OCCN(CC)CC)c(I)c1 is reported as 3500 nM (plasma; concentration not given, total, steady state).
CC(C)(CO)c1cc2cc(NC(=O)C3(c4ccc5c(c4)OC(F)(F)O5)CC3)c(F)cc2n1C[C@@H](O)CO has a Cmax of 7700 ng/mL (non-pregnant cystic fibrosis patients, plasma; dose not given).
CN(C)CCOC1=Cc2ccccc2Sc2ccc(Cl)cc21 has a Cmax of 93 nM (plasma; concentration not given, total concentration).
